Measurements gathered from unrelated publications.
Protocols differ between the studies behind these lines.
Organism: Candida albicans

| SMILES | assay | test system | setting | MIC |
| --- | --- | --- | --- | --- |
| OC(Cn1cncn1)(Cn1cncn1)c1ccc(F)cc1F | – | 2.209 | before resistance passaging | 4 µM |
| CC[C@H](C)[C@H](NC(=O)[C@H](CCCNC(=N)N)NC(=O)[C@H](Cc1c[nH]c2ccccc12)NC(=O)[C@H](CCCNC(=N)N)NC(=O)[C@H](Cc1c[nH]c2ccccc12)NC(=O)[C@H](Cc1c[nH]c2ccccc12)NC(=O)[C@H](Cc1c[nH]c2ccccc12)NC(=O)[C@H](CCCNC(=N)N)NC(=O)[C@H](Cc1c[nH]c2ccccc12)NC(=O)[C@H](CCCNC(=N)N)NC(=O)CN)C(N)=O | broth microdilution | CGMCC 2.209, RPMI 1640-MOPS | 48 h, 30 °C, together with: KCl 4.5 mM | 8 µM |
| CC(=O)N1CCN(c2ccc(OCC3COC(Cn4ccnc4)(c4ccc(Cl)cc4Cl)O3)cc2)CC1 (stereo not drawn) | broth microdilution | 56214 fluconazole-resistant, RPMI-1640 | 48 h, 30 °C | 128 µM |
| C#Cc1ccc(C=NNC(=O)c2ccc(Br)cc2Br)c(O)c1 | – | A39 | 48 h | 1 µg/mL |
| C[C@H](NC(=O)[C@H](CCCNC(=N)N)NC(=O)[C@H](Cc1c[nH]c2ccccc12)NC(=O)[C@H](CCCNC(=N)N)NC(=O)[C@H](Cc1c[nH]c2ccccc12)NC(=O)[C@H](Cc1c[nH]c2ccccc12)NC(=O)[C@H](Cc1c[nH]c2ccccc12)NC(=O)[C@H](CCCNC(=N)N)NC(=O)[C@H](Cc1c[nH]c2ccccc12)NC(=O)[C@H](CCCNC(=N)N)NC(=O)CN)C(N)=O | broth microdilution | 56452, RPMI 1640-MOPS | 48 h, 30 °C | 8 µM |
| CC[C@H](C)[C@H](NC(=O)[C@H](Cc1c[nH]c2ccccc12)NC(=O)CNC(=O)[C@@H](N)CCCNC(=N)N)C(=O)N[C@@H](CCCNC(=N)N)C(=O)N[C@@H](Cc1c[nH]c2ccccc12)C(=O)N[C@@H](Cc1c[nH]c2ccccc12)C(N)=O | – | – | – | 16 µg/mL |
| CC[C@H](C)[C@H](NC(=O)CN)C(=O)NCC(=O)N[C@@H](C)C(=O)N[C@H](C(=O)N[C@@H](CC(C)C)C(=O)N[C@@H](CCCCN)C(=O)N[C@H](C(=O)N[C@@H](CC(C)C)C(=O)N[C@H](C(=O)N[C@H](C(=O)NCC(=O)N[C@@H](CC(C)C)C(=O)N1CCC[C@H]1C(=O)N[C@@H](C)C(=O)N[C@@H](CC(C)C)C(=O)N[C@H](C(=O)N[C@@H](CO)C(=O)N[C@@H](Cc1c[nH]c2ccccc12)C(=O)N[C@H](C(=O)N[C@@H](CCCCN)C(=O)N[C@@H](CCCNC(=N)N)C(=O)N[C@@H](CCCCN)C(=O)N[C@@H](CCCNC(=N)N)C(=O)N[C@@H](CCC(N)=O)C(=O)N[C@@H](CCC(N)=O)C(N)=O)[C@@H](C)CC)[C@@H](C)CC)[C@@H](C)O)[C@@H](C)O)C(C)C)C(C)C | broth microdilution | SP 3902, RPMI-1640 | 48 h, 30 °C | 4 µM |
| CC[C@H](C)[C@H](NC(=O)[C@H](CCCNC(=N)N)NC(=O)[C@H](Cc1c[nH]c2ccccc12)NC(=O)[C@H](CCCNC(=N)N)NC(=O)[C@H](Cc1c[nH]c2ccccc12)NC(=O)[C@H](Cc1c[nH]c2ccccc12)NC(=O)[C@H](Cc1c[nH]c2ccccc12)NC(=O)[C@H](CCCNC(=N)N)NC(=O)[C@H](Cc1c[nH]c2ccccc12)NC(=O)[C@@H](N)CCCNC(=N)N)C(N)=O | broth microdilution | SP3931, RPMI 1640-MOPS | 48 h, 30 °C | 8 µM |
| CCCCCCC[C@@H]1CC(=O)N[C@H](CC(C)C)C(=O)N[C@@H](CO)C(=O)N[C@@H]([C@@H](C)O)C(=O)N[C@H](Cc2ccc(O)cc2)C(=O)N[C@@H]([C@@H](C)CC)C(=O)O1 | fungal growth, XTT | SC5314 | – | > 100 µM |
| CC[C@H](C)[C@H](NC(=O)CN)C(=O)NCC(=O)N[C@@H](C)C(=O)N[C@H](C(=O)N[C@@H](CC(C)C)C(=O)N[C@@H](CCCCN)C(=O)N[C@H](C(=O)N[C@@H](CC(C)C)C(=O)N[C@H](C(=O)N[C@H](C(=O)NCC(=O)N[C@@H](CC(C)C)C(=O)N1CCC[C@H]1C(=O)N[C@@H](C)C(=O)N[C@@H](CC(C)C)C(=O)N[C@H](C(=O)N[C@@H](CO)C(=O)N[C@@H](Cc1c[nH]c2ccccc12)C(=O)N[C@H](C(=O)N[C@@H](CCCCN)C(=O)N[C@@H](CCCNC(=N)N)C(=O)N[C@@H](CCCCN)C(=O)N[C@@H](CCCNC(=N)N)C(=O)N[C@@H](CCC(N)=O)C(=O)N[C@@H](CCC(N)=O)C(N)=O)[C@@H](C)CC)[C@@H](C)CC)[C@@H](C)O)[C@@H](C)O)C(C)C)C(C)C | – | CGMCC 2.209, RPMI 1640 MOPS-buffered | 48 h, 37 °C, tested up to 128 µM | 4 µM |
| CC(C)C[C@H](NC(=O)[C@H](CCCNC(=N)N)NC(=O)[C@H](Cc1c[nH]c2ccccc12)NC(=O)[C@H](CCCNC(=N)N)NC(=O)[C@H](Cc1c[nH]c2ccccc12)NC(=O)[C@H](Cc1c[nH]c2ccccc12)NC(=O)[C@H](Cc1c[nH]c2ccccc12)NC(=O)[C@H](CCCNC(=N)N)NC(=O)[C@H](Cc1c[nH]c2ccccc12)NC(=O)[C@@H](N)CCCNC(=N)N)C(N)=O | broth microdilution | 14936, RPMI 1640-MOPS | 48 h, 30 °C | 8 µM |
| O=[N+]([O-])[O-].[Ag+] | broth microdilution, turbidity | ATCC 10231 | 24 h, as nitrate salt | 1.5 µg/mL |

For quick reference, copied from above:
| SMILES | assay | test system | setting | MIC |
| --- | --- | --- | --- | --- |
| CC[C@H](C)[C@H](NC(=O)CN)C(=O)NCC(=O)N[C@@H](C)C(=O)N[C@H](C(=O)N[C@@H](CC(C)C)C(=O)N[C@@H](CCCCN)C(=O)N[C@H](C(=O)N[C@@H](CC(C)C)C(=O)N[C@H](C(=O)N[C@H](C(=O)NCC(=O)N[C@@H](CC(C)C)C(=O)N1CCC[C@H]1C(=O)N[C@@H](C)C(=O)N[C@@H](CC(C)C)C(=O)N[C@H](C(=O)N[C@@H](CO)C(=O)N[C@@H](Cc1c[nH]c2ccccc12)C(=O)N[C@H](C(=O)N[C@@H](CCCCN)C(=O)N[C@@H](CCCNC(=N)N)C(=O)N[C@@H](CCCCN)C(=O)N[C@@H](CCCNC(=N)N)C(=O)N[C@@H](CCC(N)=O)C(=O)N[C@@H](CCC(N)=O)C(N)=O)[C@@H](C)CC)[C@@H](C)CC)[C@@H](C)O)[C@@H](C)O)C(C)C)C(C)C | broth microdilution | SP 3902, RPMI-1640 | 48 h, 30 °C | 4 µM |
